Experimental data from different studies.
A part holds a random share of what one study measured.

Block 1 — method: RNA Bind-n-Seq; molecule type: RNA; matrix: in vitro; concentration: 365 nM; relative to: no-protein control; direction: higher = stronger binding; measurement: RBNS enrichment (R)
Target: RNA binding protein fox-1 homolog 2, RRM domain, GST-SBP tag (RBFOX2, Homo sapiens, UniProt O43251-10, residues 100-194)
Setting: natural RNA segment, single round, ends assumed
Construct (chain): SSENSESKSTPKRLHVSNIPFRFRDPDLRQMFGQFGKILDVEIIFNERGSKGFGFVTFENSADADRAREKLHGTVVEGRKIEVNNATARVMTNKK
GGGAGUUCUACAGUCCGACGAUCCGAAGCCACUGCUCCUGGGAGCACACAAGCUUCUCCCUGGAACAGCUCUUAGGAAAAGAGGCAAACCCACACCCAAAAGUACCUUGUUUUCCUUGGGGAAGAUGCGUGGAUGGAAUUCUCGGGUGCCAA: 0.23
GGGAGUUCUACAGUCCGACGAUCGCUGAGUUCAGGAUGCCUGCGUGUGGUUUAGGUGUUAGCCUUCUUACAUGGAUGUCAGGAGAGCUGCUGCCCUCUUGGCGUGAGUUGCGUAUUCAGGCUGCUUUUGCUGCUGGAAUUCUCGGGUGCCAA: 0.236
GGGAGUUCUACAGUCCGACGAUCGGUUAUGUUCUGGGUCUUUGUAAUCGCUGAUCUCUGUAACAGAGCCUCUGUUUAUUUUUGCUUGUUGGAAAUAGGGUUCAACCAUGCAUAGUUAGAAUCACUAUGCAUCUUGGAAUUCUCGGGUGCCAA: 3.35
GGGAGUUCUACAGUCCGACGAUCUUUAUUAUGACACUAGAUACAGUAAAUUUUUAGAAAAAAAUACCAUUUACAGUAUUAUUGUGAACCAUUUAACCCUUUUGAUCCAAGGCCCCGGACCAAGGGGAUACUGUUGGAAUUCUCGGGUGCCAA: 0.312
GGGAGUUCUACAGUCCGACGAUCCUCACACACAGGGGCAGCCAGUGCUUCUGGGGCCCUGGUUGGGGUUCACCCGAGAUGCCCAGGGGUACCGCCUCCAGCCUCAGGCCUGGAGCAUUCCAUCAAAGUUGGAAUGGAAUUCUCGGGUGCCAA: 0.404
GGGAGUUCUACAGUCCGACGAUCUGGAUACCAAUCUCUCCUGUCUUUAAUGUUAUUUUCAAAGACUACUCUCAAGAUCCAUUAGCUUUUAAAAUUUCUGCCUCUGAGUCUGAAGCCCAGGUGGACAGCCAUUUUGGAAUUCUCGGGUGCCAA: 0.551
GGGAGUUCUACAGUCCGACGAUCUAUUACAGAAUAUUUUCAUGCAAUCAUGUGCACAUUAUUGGUAGCAAACAUAGUAUAUCCUUUAGUACUUUAACAUAUUUUUGUUAAAAUACUUUUAAUGGUAAGAAAUGUGGAAUUCUCGGGUGCCAA: 0.659
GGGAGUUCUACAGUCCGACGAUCCAUCCCCGCGGUUGAGGCUGUGGGGGCAGCAGAUCAGGAGCCCACUGAUAAGGGGCCCUAGGGUACAGGGUGCUGCCCAGCAGGUCGCCACCGAGUGUCUUCUCAUUUUAUGGAAUUCUCGGGUGCCAA: 0.328
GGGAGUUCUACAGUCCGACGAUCUUAAAAUCUUGCUCACCUUCAGAGCAGAGGGAAUACCUAUCUUCAGAUAUCCGUCCAUUUUCAUCUCUUAAUUGUAGUCAAAAGUAUGACUUGAGAGUGUUGCUCUGGUAUGGAAUUCUCGGGUGCCAA: 0.39
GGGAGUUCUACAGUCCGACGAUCGUCUGUAAAUUUGCAAAUUUUUCCUUUUAUAUGUGUGUUAGAAAAAUAAAGUGUUAUUGUUCCAAAAGCAUGAUGCUGUGUUCCAUUCAUUAUGAAGGGACAGACCUGGGUGGAAUUCUCGGGUGCCAA: 1.53
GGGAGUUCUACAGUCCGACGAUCAGCUGUGAUUGAGUGUGCUAUUAUUUGGAAGGAGAAAAUGUAAAUUGAGAUAGCUGUAGUGUUUAUGCCAGAAGUCUCUGGGGACAUCUACUGCUUGUGUCUCUUUGGUGUGGAAUUCUCGGGUGCCAA: 2.75
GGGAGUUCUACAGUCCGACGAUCCAUUUCAAGAAAUUACAGACUUCAUUAAAGGUGUAAAUUAAAGUGGCUUGCCAAAAACGAGGAACUGAGUUAUGUUUCUGAUGACAACUGUCCUUUAUUUCCUAUCCUCUUGGAAUUCUCGGGUGCCAA: 0.302

Block 2 — method: protein binding microarray; molecule type: double-stranded DNA, one strand shown; matrix: in vitro; concentration: not given; relative to: not given; direction: higher = stronger binding; measurement: E-score
Target: Histone acetyltransferase KAT6A, winged helix 2, GST fusion (KAT6A, Homo sapiens, UniProt Q92794, residues 85-181)
Setting: 8-mer, flanks averaged, mean of 2 arrays, mostly near background
Target sequence (chain): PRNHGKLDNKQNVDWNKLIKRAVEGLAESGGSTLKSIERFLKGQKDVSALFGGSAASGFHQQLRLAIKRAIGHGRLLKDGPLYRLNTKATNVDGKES
TAGAATCA: 0.0596
ATTCTATC: 0.0285
AACGCAGG: 0.0938
GCAGACAA: -0.0459
AGATGAGC: 0.0505
AGTCCGAT: -0.0383
ACCGGGTG: 0.0647
CTACACGC: -0.0216
AGGGTAAG: -0.0221
ACCACAAA: 0.0785
ACAGGCAT: -0.0239
AACTAATA: 0.08
AGCCGTTG: 0.0199
AGGGACAT: -0.0936
AATGCCGA: 0.0836
ACTGCGCC: -0.0997
TCCGTTCA: 0.0047
CAGGTTCG: 0.0112
CTTGGCAA: -0.0108
CTATTGGA: -0.0207
CCAAAAGA: 0.168
AAACGGTT: -0.242
CCCTGCGG: 0.145
AGAGAACC: -0.158

Block 3 — method: aptamer microarray, sandwich; molecule type: DNA with 2'F-ANA; matrix: in vitro; concentration: 200 nM; added: Cy3 exosite-II aptamer, 400 nM; direction: higher = stronger binding; measurement: mean fluorescence intensity; oligonucleotide: GGTTGGTGTGGTTGG
Target: Prothrombin, mature alpha-thrombin (F2, Homo sapiens, UniProt P00734)
Setting: whole 15-mer aptamer, many near background
2'F-ANA at 3 4 5 6 13 14 15: 50.9 a.u.
2'F-ANA at 3 4 6 8 10 11 13 14 15: 132 a.u.
2'F-ANA at 3 4 6 7 8 12 14: 416 a.u.
2'F-ANA at 2 4 5 9 12 13: 83.2 a.u.
2'F-ANA at 1 2 6 9 10 12 14 15: 48.1 a.u.
2'F-ANA at 1 3 13 15: 305 a.u.
2'F-ANA at 1 3 5 7 8 10 14 15: 45.9 a.u.
2'F-ANA at 3 4 5 6 9 10 11 14: 53.7 a.u.
2'F-ANA at 2 4 6 7 8 10 12 13 14: 82.7 a.u.
2'F-ANA at 2 3 6 8 9 14 15: 356 a.u.
2'F-ANA at 1 4 6 9 12: 265 a.u.
2'F-ANA at 1 3 5 6 7 9 15: 67.2 a.u.
2'F-ANA at 2 3 7 9 11 12 15: 891 a.u.
2'F-ANA at 1 3 4 7 9 10 13 15: 59 a.u.
2'F-ANA at 4 5 8 9 10 11 12 13 14: 65.1 a.u.
2'F-ANA at 2 4 5 7 9 11 15: 76.6 a.u.
2'F-ANA at 1 4 6 7 12 14 15: 57.8 a.u.

Block 4 — method: RNA Bind-n-Seq; molecule type: RNA; matrix: in vitro; concentration: not given; setting: RNA with constant flanks, ends assumed; relative to: input RNA pool; direction: higher = stronger binding; measurement: bound/input enrichment
Target: RING finger protein unkempt homolog, zinc fingers 1-6, GST-SBP tag (UNK, Homo sapiens, UniProt Q9C0B0, residues 30-357)
Sequence of UniProt Q9C0B0 (30-357, looked up): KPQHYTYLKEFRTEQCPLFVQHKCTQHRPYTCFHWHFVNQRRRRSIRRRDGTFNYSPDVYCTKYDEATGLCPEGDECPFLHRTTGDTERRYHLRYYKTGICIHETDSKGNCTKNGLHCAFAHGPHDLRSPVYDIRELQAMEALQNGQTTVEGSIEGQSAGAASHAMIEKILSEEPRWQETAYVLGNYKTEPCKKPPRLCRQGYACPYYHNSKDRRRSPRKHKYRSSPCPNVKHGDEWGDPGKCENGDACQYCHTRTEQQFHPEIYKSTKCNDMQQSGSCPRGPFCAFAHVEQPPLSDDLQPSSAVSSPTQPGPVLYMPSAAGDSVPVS
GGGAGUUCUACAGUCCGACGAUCUGUGACAAGCUUUAUACCUGCCGGCUGUGUCACGAUACCAAUGAAGAUCAUCAGCCCGAUCGUUUCAAAGUCAAGGAAGUGCAGUGCAUCAACUGUGAAAAACUCCAACAUGCCCAGCAGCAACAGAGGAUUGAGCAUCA: 0.135 ratio
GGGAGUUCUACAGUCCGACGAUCGCUCUUGCAUAUGGAAUCUAUAAGCAGGAUCUUCCUGCCUUAGAAGAGAAACCAAGAAAUGCCGUUUUUGUAGACAUGGGCCACUCUGCUUAUCAAGUUUCUGUAUGUGCAUUUAAUAGACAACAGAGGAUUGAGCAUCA: 0.278 ratio
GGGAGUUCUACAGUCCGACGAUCUAAAGCAGGUUCAAAAACACAUGAACUGCAGAUGCCAUAGGCCUCAAAUCAGCUGUAAUUCCCGGAGACACGUGUUGAUCUAGUUAUCUAACAUUGUUGUUAUAAGAAAAUGAGUUUACUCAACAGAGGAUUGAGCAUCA: 0.118 ratio
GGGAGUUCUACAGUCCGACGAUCUAUCAGUCUCUCCUUAUCAGAGGAGAGACCUUUUAUUUUUAAGAUGACUACAGACCUAUUUUCCGAUAAGUUUUCAGUACAAUUUUGAACUACAACUUUUUUAACAAAACAUCUUCCAGUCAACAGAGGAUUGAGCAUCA: 0.144 ratio
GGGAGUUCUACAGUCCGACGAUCUUUUGGAAACAGUUCAGGCUUUGGGGUGAGCCUGUCAAUCUUCGUGAACAACAUGAUGCUUCCGAGUUCUUUAAUUCUUUGGUGGAUAGUUUAGAUGAAGCUUUAAAAGCCUUAGGGCAUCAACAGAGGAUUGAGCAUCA: 1.72 ratio
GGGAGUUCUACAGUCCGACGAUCUUAUGUCUUCAGCUUCGGCAGGACAUAGUUGCAGGACGUCUGCCCUGUUCCUUUGCAACCUCCGCAUUAUUAGGUUCUUACACCAUCCAGUCUGAACUGGGAGACUACGACCCAGAACUCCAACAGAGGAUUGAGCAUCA: 0.343 ratio
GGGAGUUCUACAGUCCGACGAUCCAAGGCAUCUGUCCUGAAAGCUGCUAAUCUAUGGUCUAGUGAAUUUAUAUUAUAUGCAGACCGUAAUGAACUGGGAGAUCAAUGAACAGCAAGGGUGAUACCACAUUGCAAAAUGGAAGCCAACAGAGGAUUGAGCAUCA: 0.313 ratio
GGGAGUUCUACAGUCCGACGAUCUCUUUUUCCUGGACUACAGACUGCAAUCCCCGUAGGGAGUGGCAUUGCUCACAUAGACAUCCGUAUUUUACUGAGGGUAUCAGCACCAUGGCCACUGAAGACCAGACAUAGGGUUGGGAACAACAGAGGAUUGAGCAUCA: 1.84 ratio
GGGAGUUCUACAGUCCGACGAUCAGCAUGGUUCGGCAUUCUUCAUCUCCAUAUGUAGUAUAUCCUUCGGAUAAGCCUUUCCUUAACCGUGAUCUACGACGCUCCCCAAGUAAGCCUACACUUGCCUAUCCAGAAAGCAACAGCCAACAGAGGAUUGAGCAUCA: 0.117 ratio
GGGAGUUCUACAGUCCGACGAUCUGUCUUGAUGACACAACAGUAAAAUUUGAAAUAUGGGAUACAGCUGGUCAAGAACGGUAUCACCGCUCCGCACCAAUGUACUACCGAGGAGCACAAGCAGCCAUAGUUGUGUAUGAUAUCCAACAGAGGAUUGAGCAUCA: 0.227 ratio
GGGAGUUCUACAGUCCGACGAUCAAAGGGAAAUCAGUCCGUGUUCAUGUACAGUUUUUUGAUGACAGCCCAACAAGGGGCUGGGUCCGCAAAAGGCUUUUAAAGCCAUAUACAGGUUCAAAAUCAAAGGAAGCCCAGAAGGGACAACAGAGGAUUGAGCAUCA: 0.214 ratio

Excerpt of the above (block 2):
TAGAATCA: 0.0596
ATTCTATC: 0.0285
AACGCAGG: 0.0938
GCAGACAA: -0.0459
AGATGAGC: 0.0505
AGTCCGAT: -0.0383
ACCGGGTG: 0.0647
CTACACGC: -0.0216
